{"data": "Published values of several laboratories", "target": "Serine/threonine-protein kinase LATS1 (LATS1, Homo sapiens, UniProt O95835)", "note": "Each line is one published result; not all experiments were run side by side."}
{"SMILES": "Cc1cccc(O[C@H]2CCC[C@@H](C(C)CNCc3ccncc3)C2)c1 (relative stereo)", "assay": "enzyme activity, inhibitor", "conditions": "10 µM", "measurement": "inhibition", "value": "-3%"}
{"SMILES": "CNC(=O)C1CCN(c2cc(C)c(F)cc2NC(=O)c2ccc(-c3cc(O)ccc3C)c(C)c2)CC1", "assay": "binding, competition with immobilised ligand", "conditions": "1 µM", "measurement": "remaining binding", "value": "95%"}
{"SMILES": "Cc1cnc2nc1Nc1cccc(c1)COC/C=C/COCc1cc(ccc1OCCN1CCOCC1)N2", "assay": "binding", "conditions": "0.1 µM", "measurement": "remaining binding", "value": "100%"}
{"SMILES": "NC(=O)[C@@H](O)C[C@H]1CCc2sc3ncnc(O[C@H]4CC[C@H](N5CCOCC5)CC4)c3c21", "assay": "enzyme activity, inhibitor", "conditions": "10 µM", "measurement": "inhibition", "value": "4%"}
{"SMILES": "CN1CCN(Cc2ccc(-c3ccc(CO[C@H]4CCC[C@@H]4NC(=O)c4cc(-c5cnn(C)c5)cnc4N)cc3)cc2)CC1", "assay": "enzyme activity, inhibitor", "conditions": "0.1 µM", "measurement": "inhibition", "value": "17%"}
{"SMILES": "CCN1CCN(Cc2ccc(C(=O)Nc3ccc(C)c(NCc4cnc5[nH]ccc5c4OC)c3)cc2C(F)(F)F)CC1", "assay": "binding, competition with immobilised ligand", "conditions": "1 µM", "measurement": "remaining binding", "value": "100%"}
{"SMILES": "COc1cc(Nc2nc(C)cc(-c3cnn4nc(OC)ccc34)n2)cc(C(F)(F)F)c1", "assay": "inhibitor", "conditions": "1 µM", "how to read": "baseline: control", "measurement": "remaining activity", "value": "100%"}
{"SMILES": "Nc1ncc2c(n1)-c1c([nH]c3ccc(C4=CCOCC4)cc13)CCC2", "assay": "binding, competition with immobilised ligand", "conditions": "1 µM", "measurement": "remaining binding", "value": "79%"}
{"SMILES": "CNC1C[S+]2CC[S+]3CC[S+](C1)[Ru-4]321([N]=C=S)[n]2c3ccc(OC)cc3c3c4c(c5cc(F)c[n+]1c5c32)C(=O)NC4=O (stereo not shown)", "assay": "KinomeScan", "conditions": "0.1 µM", "how to read": "baseline: untreated", "measurement": "remaining binding", "value": "89%"}
{"SMILES": "COc1c(Cl)cccc1Nc1c(-c2ccncc2C#C[C@@]2(C)CCCN2C(=O)/C=C/CN(C)C)[nH]c2c1C(=O)NCC2", "assay": "binding, competition with immobilised ligand", "conditions": "3 µM", "measurement": "remaining binding", "value": "100%"}
{"note": "A few entries again:"}
{"SMILES": "Cc1cnc2nc1Nc1cccc(c1)COC/C=C/COCc1cc(ccc1OCCN1CCOCC1)N2", "assay": "binding", "conditions": "0.1 µM", "measurement": "remaining binding", "value": "100%"}
